Measurements collected from several papers.
Lines come from different studies, so protocols differ. Numbers after ± are the reported error.
Uncharacterized protein: Uncharacterized protein (Equus caballus, UniProt Q38RB9)
gag-pol reverse transcriptase: Gag-Pol polyprotein, reverse transcriptase (gag-pol, Human immunodeficiency virus 1, UniProt P03366)
MDM2: E3 ubiquitin-protein ligase Mdm2 (MDM2, Homo sapiens, UniProt Q00987)
UniProt Q00987, sequence (whole entry, looked up): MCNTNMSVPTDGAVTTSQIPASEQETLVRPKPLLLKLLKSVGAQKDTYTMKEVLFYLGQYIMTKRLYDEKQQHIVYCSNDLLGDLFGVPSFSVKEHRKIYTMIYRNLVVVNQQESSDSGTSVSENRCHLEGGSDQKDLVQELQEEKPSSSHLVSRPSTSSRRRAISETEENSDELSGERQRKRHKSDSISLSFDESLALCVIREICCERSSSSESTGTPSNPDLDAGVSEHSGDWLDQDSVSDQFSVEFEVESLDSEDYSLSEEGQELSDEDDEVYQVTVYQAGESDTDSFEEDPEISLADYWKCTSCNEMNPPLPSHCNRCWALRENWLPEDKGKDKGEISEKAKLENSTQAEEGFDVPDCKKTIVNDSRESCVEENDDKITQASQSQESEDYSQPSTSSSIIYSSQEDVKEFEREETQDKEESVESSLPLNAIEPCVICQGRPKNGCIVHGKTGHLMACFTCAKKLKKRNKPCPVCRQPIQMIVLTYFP
ACTA1 pyrene-labeled: Actin, alpha skeletal muscle, pyrene-labeled (ACTA1, Oryctolagus cuniculus, UniProt P68135)
Cytochrome P450 2A13: Cytochrome P450 2A13 (Homo sapiens, UniProt Q16696)
UniProt Q16696, sequence (whole entry, looked up): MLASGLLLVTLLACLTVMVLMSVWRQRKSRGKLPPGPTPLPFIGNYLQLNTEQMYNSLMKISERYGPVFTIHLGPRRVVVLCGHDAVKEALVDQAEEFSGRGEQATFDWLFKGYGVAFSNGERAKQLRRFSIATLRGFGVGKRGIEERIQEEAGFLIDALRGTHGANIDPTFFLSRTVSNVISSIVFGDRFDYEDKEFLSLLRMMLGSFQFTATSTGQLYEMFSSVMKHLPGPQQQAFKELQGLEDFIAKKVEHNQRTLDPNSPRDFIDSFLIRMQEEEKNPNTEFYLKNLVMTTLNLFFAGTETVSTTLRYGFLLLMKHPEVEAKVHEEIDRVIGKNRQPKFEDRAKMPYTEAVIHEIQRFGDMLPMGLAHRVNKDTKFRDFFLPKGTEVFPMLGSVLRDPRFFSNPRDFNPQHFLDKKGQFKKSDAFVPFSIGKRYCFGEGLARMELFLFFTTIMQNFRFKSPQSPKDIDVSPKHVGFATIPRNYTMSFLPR
UniProt O15111, sequence (whole entry, looked up): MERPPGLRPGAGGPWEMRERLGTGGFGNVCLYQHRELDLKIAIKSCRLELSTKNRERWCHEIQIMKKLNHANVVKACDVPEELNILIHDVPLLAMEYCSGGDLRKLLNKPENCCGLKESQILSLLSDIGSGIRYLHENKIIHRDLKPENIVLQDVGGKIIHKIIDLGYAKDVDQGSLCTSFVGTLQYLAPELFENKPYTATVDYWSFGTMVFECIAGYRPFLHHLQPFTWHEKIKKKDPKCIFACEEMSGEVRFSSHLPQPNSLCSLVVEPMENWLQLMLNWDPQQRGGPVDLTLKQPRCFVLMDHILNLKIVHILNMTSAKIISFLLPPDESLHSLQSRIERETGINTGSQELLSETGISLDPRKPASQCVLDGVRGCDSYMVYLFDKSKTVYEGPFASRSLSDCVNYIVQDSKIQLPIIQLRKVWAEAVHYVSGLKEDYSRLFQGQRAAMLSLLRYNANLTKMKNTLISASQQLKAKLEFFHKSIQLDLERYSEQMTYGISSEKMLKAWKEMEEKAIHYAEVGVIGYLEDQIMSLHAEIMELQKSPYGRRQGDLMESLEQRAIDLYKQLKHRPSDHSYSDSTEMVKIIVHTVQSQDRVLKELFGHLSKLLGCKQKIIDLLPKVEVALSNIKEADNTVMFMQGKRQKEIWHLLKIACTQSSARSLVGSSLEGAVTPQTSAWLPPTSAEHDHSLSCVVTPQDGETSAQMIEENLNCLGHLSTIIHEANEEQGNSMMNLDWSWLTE
UniProt Q8BHN3, sequence (whole entry, looked up): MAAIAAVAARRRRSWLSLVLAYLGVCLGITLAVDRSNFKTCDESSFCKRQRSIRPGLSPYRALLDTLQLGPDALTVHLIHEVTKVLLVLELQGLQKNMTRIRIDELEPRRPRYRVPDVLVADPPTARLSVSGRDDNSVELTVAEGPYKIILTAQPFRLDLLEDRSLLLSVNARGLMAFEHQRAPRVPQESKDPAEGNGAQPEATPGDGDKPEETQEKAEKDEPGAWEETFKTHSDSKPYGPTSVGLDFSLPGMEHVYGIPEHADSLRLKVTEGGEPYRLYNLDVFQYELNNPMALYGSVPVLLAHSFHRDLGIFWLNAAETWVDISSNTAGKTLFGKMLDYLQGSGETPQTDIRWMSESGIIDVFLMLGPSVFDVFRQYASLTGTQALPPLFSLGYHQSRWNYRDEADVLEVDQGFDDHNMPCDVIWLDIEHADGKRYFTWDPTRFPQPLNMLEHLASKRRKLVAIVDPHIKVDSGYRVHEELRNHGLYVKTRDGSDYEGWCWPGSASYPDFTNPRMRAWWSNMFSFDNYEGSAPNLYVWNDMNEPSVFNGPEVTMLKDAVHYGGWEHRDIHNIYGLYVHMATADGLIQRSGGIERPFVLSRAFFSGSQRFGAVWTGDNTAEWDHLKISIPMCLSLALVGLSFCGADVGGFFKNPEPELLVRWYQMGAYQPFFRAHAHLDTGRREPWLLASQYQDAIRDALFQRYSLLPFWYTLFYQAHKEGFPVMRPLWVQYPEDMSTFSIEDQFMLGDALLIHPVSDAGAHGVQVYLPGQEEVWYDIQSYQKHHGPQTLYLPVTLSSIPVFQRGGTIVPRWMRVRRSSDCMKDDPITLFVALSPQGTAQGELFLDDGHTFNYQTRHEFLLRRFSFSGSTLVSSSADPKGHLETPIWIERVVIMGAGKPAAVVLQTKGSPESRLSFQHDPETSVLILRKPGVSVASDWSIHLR
UniProt Q15391, sequence (whole entry, looked up): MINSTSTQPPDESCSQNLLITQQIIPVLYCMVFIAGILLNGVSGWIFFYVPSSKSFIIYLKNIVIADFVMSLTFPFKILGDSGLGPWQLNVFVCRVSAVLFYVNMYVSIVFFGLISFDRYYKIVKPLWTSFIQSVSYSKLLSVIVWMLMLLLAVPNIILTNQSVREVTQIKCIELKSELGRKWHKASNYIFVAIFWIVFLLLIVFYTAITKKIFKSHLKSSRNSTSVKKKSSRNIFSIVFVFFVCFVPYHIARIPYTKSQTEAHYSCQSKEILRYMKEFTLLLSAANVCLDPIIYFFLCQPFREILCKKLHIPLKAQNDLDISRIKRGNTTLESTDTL
UniProt P00441, sequence (whole entry, looked up): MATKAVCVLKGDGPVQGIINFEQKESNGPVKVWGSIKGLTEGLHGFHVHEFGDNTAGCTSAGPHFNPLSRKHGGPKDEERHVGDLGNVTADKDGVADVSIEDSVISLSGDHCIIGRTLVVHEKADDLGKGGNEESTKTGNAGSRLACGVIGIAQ
UniProt Q9UKF6, sequence (whole entry, looked up): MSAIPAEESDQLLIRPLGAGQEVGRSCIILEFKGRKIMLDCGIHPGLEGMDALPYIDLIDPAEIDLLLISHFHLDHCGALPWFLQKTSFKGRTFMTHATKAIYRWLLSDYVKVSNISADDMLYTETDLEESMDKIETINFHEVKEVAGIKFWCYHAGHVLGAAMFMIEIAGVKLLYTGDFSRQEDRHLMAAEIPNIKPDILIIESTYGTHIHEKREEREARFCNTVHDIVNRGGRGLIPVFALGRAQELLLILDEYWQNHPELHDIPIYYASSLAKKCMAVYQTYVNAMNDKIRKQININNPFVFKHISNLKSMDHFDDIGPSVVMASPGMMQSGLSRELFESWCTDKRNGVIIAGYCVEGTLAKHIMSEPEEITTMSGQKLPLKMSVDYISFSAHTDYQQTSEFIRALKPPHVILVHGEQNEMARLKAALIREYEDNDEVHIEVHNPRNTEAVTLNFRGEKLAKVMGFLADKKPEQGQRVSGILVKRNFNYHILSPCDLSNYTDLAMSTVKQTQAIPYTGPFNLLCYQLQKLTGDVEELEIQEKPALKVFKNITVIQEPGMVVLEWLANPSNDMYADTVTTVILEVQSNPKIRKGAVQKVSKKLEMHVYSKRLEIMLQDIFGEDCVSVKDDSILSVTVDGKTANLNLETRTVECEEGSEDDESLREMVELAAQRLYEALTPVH
UniProt Q99623, sequence (whole entry, looked up): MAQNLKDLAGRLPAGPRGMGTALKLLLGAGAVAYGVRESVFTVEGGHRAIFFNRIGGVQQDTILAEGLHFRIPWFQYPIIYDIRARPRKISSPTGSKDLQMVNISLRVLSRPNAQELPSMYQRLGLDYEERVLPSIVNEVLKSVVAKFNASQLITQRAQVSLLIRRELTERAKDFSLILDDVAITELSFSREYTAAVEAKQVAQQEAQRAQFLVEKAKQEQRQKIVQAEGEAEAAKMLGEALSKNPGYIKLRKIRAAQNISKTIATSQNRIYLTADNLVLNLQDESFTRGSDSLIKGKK
UniProt P33535, sequence (whole entry, looked up): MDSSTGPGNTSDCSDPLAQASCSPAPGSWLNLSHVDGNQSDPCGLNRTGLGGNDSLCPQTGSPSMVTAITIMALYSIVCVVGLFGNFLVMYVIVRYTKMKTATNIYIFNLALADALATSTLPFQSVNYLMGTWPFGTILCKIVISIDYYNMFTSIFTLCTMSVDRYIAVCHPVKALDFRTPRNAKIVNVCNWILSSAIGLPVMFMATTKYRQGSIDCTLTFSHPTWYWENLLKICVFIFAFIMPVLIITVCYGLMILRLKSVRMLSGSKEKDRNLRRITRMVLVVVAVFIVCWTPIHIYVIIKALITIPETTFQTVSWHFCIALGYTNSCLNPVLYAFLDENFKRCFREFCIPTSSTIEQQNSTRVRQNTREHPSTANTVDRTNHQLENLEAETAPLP
UniProt Q14994, sequence (whole entry, looked up): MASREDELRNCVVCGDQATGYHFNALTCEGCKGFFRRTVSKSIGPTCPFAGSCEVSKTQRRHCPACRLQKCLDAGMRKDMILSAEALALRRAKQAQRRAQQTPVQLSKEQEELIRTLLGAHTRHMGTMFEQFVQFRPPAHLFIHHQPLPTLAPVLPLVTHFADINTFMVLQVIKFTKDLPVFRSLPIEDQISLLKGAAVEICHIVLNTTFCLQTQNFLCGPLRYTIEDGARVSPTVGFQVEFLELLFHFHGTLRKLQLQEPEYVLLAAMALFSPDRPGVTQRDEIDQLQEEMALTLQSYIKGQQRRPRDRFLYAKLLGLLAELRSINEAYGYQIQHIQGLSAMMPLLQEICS

CC[C@H](C)[C@H](NC(=O)[C@@H](NC(=O)[C@@H](NC(=O)[C@H](CCCCN)NC(=O)[C@H](CC(N)=O)NC(=O)[C@H](CCCCN)NC(=O)[C@H](CCSC)NC(=O)[C@H](CC(=O)O)NC(=O)CN)C(C)C)C(C)C)C(=O)O — IC50 (Uncharacterized protein; peptide binding, competitor, competitive radioligand binding; purified horse MHC class I; pH 7): 16 nM
CC(C)(C)C#Cc1cc(-c2ccnc(N)c2)cc2c(N)n[nH]c12 — IC50 (CHUK (Homo sapiens, UniProt O15111); inhibitor): 24.7 nM
CC(C)C[C@@H](CNC(=O)N1CCC[C@H]1C(N)=O)NC(=O)NC[C@H](CC(C)C)NC(=O)[C@H](C)NC(=O)[C@H](Cc1c[nH]c2ccccc12)NC(=O)[C@H](Cc1ccc(O)cc1)NC(=O)[C@H](CCC(=O)O)NC(=O)[C@H](C)NC(=O)[C@H](Cc1ccccc1)NC(=O)[C@H](CO)NC(=O)[C@@H](N)[C@@H](C)O — IC50 (Protein Mdm4, with p53 (MDM4, Homo sapiens, UniProt O15151); p53 binding, TR-FRET): 116 nM
O=[N+]([O-])c1cc(-c2ccnc(N3CCOCC3)n2)ccc1NCCCCCCN1C[C@H](O)[C@@H](O)[C@H](O)[C@H]1CO — IC50 (Ganab (Mus musculus, UniProt Q8BHN3); enzyme activity, inhibitor; together with: 4-methylumbelliferyl substrate): < 1 nM
NC(N)=NC(=O)c1nc(Cl)c(N2CCCCCC2)nc1N — IC50 (Genome polyprotein, 3D RNA polymerase (Coxsackievirus B3, UniProt P03313); RNA polymerase activity, inhibitor, single AMP incorporation; no Mg2+ preincubation): 136000 ± 22000 nM
C[C@@H](NC(=O)[C@@H](N)Cc1ccc(O)cc1)C(=O)NCC(=O)N[C@@H](Cc1ccccc1)C(=O)N(C)CCC[C@@]1(c2ccc(F)cc2)OCc2cc(C#N)ccc21 — IC50 (Oprm1 (Rattus norvegicus, UniProt P33535)): 200 nM
CC[C@H](C)[C@H](NC(=O)[C@H](CCC(=O)O)NC(=O)[C@H](CCCNC(=N)N)NC(=O)[C@@H](NC(=O)[C@H](CCCCN)NC(=O)[C@H](Cc1ccc(O)cc1)NC(=O)[C@@H](NC(=O)[C@H](CC(=O)O)NC(=O)[C@@H](N)CO)[C@@H](C)CC)[C@@H](C)CC)C(=O)O — IC50 (Uncharacterized protein; peptide binding, competitor, competitive radioligand binding; purified horse MHC class I; pH 7): 1.4 nM
C[C@H]1CN(c2n[nH]c3nc(N[C@H]4CC[C@H](NS(=O)(=O)CCC(F)(F)F)CC4)ncc23)CCO1 — IC50 (Prohibitin-2 (PHB2, Homo sapiens, UniProt Q99623); biochemical): ≥ 20000 nM
O=C(O)c1cc(-c2ccc([C@@H]3C[C@@H]4C[C@H]3NC4=O)cc2)c2ccc(-c3ccc(C(F)(F)F)cc3)cc2c1 — IC50 (P2Y purinoceptor 14 (P2RY14, Homo sapiens, UniProt Q15391); antagonist, flow cytometry; CHO expressing target; together with: fluorescent antagonist 20 nM): ~40 nM
O=C(Cn1nnc2ccccc21)Nc1ccccc1N1CCc2sccc2C1 — IC50 (Genome polyprotein, 3C protease (rhinovirus B14, UniProt P03303); protease activity, inhibitor, SAMDI-MS): > 100000 nM
O=C1CSC(c2c(Cl)cccc2Cl)N1c1cccc(S(=O)(=O)Nc2nccs2)c1 (centres unmarked) — IC50 (gag-pol reverse transcriptase): > 4000 nM
CC(=O)N[C@@H](CC(C)C)C(=O)N[C@H](C(=O)N[C@@H](Cc1ccccc1)C(=O)N[C@@]1(C)CCCC=CCCC[C@@](C)(C(=O)N[C@@H](CCC(N)=O)C(=O)N[C@@H](CC(C)C)C(=O)N[C@H](C(=O)N[C@@H](CO)C(N)=O)[C@@H](C)O)NC(=O)[C@H](Cc2c[nH]c3ccccc23)NC(=O)[C@H](Cc2ccc(O)cc2)NC(=O)[C@H](CCC(=O)O)NC1=O)[C@@H](C)O — IC50 (MDM2): 49 nM
O=C1CSC(c2cccc(Cl)c2)N1c1nc(-c2ccc(S(=O)(=O)N3CCCC3)cc2)cs1 (centres unmarked) — IC50 (gag-pol reverse transcriptase): 180 nM
CN1CCN(CCOc2c(Cl)cc(C(=O)N[C@@H](Cc3ccccc3)C(=O)O)c(O)c2Cl)CC1 — IC50 (CPSF3 (Homo sapiens, UniProt Q9UKF6); pre-mRNA cleavage, inhibitor; HeLa nuclear extract; together with: Chimera_1 substrate): 2100 nM
COc1ccc([C@@H]2CC(=O)c3c(O)cc(O[C@@H]4O[C@H](CO[C@@H]5O[C@@H](C)[C@H](O)[C@@H](O)[C@H]5O)[C@@H](O)[C@H](O)[C@H]4O)cc3O2)cc1O — IC50 (Superoxide dismutase [Cu-Zn], fully metallated (SOD1, Homo sapiens, UniProt P00441); enzyme activity, inhibitor, XTT): > 75000 nM
CCOC(=O)[C@H]1Cc2c(cc([N+](=O)[O-])cc2[N+](=O)[O-])[C@@H](O)[C@@]12C(=O)Nc1ccc(F)cc12 — IC50 (MDM2): 570 ± 80 nM
COC1(C2CSC(=O)N2)CC2CC(CCC(C)C=CC=CCCC(C)=CC(=O)O2)O1 (centres unmarked) — IC50 (ACTA1 pyrene-labeled; actin polymerization, pyrene actin): 9230 ± 825 nM
O=C1CSC(c2ccc(Br)cc2)N1c1nc(-c2ccc(S(=O)(=O)N3CCOCC3)cc2)cs1 (centres unmarked) — IC50 (gag-pol reverse transcriptase): > 4000 nM
C#Cc1cc2ccccc2c2ccccc12 — IC50 (Cytochrome P450 2A13; enzyme activity, inhibitor; 20 min, pH 7.4): 15000 to 80000 nM
N#Cc1ccc(Nc2ncc(Cc3c(F)cc(-c4ccc(O)cc4)cc3F)o2)cc1 — IC50 (gag-pol reverse transcriptase; enzyme activity, inhibitor; HIV-1): > 1000 nM
C[C@@H]1[C@@H](c2ccc(Cl)cc2)SC(=O)N1C(=O)NC1CCCCC1 — IC50 (Androgen receptor (Ar, Rattus norvegicus, UniProt P15207); binding, competitive ligand binding): > 100000 nM
CC[C@H](C)[C@H](NC(=O)[C@H](CCSC)NC(=O)[C@@H](NC(=O)[C@@H](NC(=O)[C@H](CCCCN)NC(=O)[C@H](CCCCN)NC(=O)[C@H](CO)NC(=O)[C@H](Cc1ccc(O)cc1)NC(=O)[C@H](CC(=O)O)NC(=O)[C@@H](N)CCCCN)C(C)C)[C@@H](C)O)C(=O)O — IC50 (Uncharacterized protein; peptide binding, competitor, competitive radioligand binding; purified horse MHC class I; pH 7): 16 nM
O=C1CSC(c2c(Cl)cccc2Cl)N1c1nc(-c2ccc(S(=O)(=O)N3CCOCC3)cc2)cs1 (centres unmarked) — IC50 (gag-pol reverse transcriptase): > 4000 nM
c1ccccc1 — IC50 (Cytochrome P450 2A13; 20 min, pH 7.4): > 200000 nM
C/C1=C/C(=O)O[C@@H]2C[C@@H](CC[C@H](C)/C=C\C=C\CC1)O[C@@](O)([C@@H]1CSC(=O)N1CO)C2 — IC50 (ACTA1 pyrene-labeled; actin polymerization, pyrene actin): 210 ± 54 nM
c1ccc(-c2ccccc2)cc1 — IC50 (Cytochrome P450 2A13; 20 min, pH 7.4): 15000 to 80000 nM
CO[C@H]1C[C@H](O[C@@H]2/C(C)=C/C[C@@H]3C[C@@H](C[C@]4(CC[C@H](C)[C@@H](C5CCCCC5)O4)O3)OC(=O)[C@@H]3C=C(C)/C(=N/O)[C@H]4OC/C(=C\C=C\[C@@H]2C)[C@]43O)O[C@@H](C)[C@@H]1O — IC50 (Nuclear receptor subfamily 1 group I member 3 (Homo sapiens, UniProt Q14994); receptor activity, inhibitor; cells): 29000 ± 17000 nM
COc1ccc(-c2cc(=O)c3c(O)cc(O)cc3o2)cc1 — IC50 (Cytochrome P450 2A13; enzyme activity, inhibitor; 20 min, pH 7.4): > 200000 nM
COc1cc(Nc2ncc(F)c(Nc3ccc4c(n3)NC(=O)C(C)(C)O4)n2)cc(OC)c1OC — IC50 (imidazoline I2 receptor; central): > 10000 nM
